Measured values gathered from unrelated publications.
Each numbered part is a random draw from the data of one study; scales do not carry over between parts.

Series 1
Read-out: AlphaScreen signal
Method: AlphaScreen counter screen
Sample: His6 peptide without bromodomain
Tested at: 50 µM
Notes: assay interference check
Measurement: inhibition
COc1ccccc1-c1cnc2[nH]c(=O)n(C3CCCC3)c2n1: 12.6%
N#CC(=Cc1ccncc1)c1nc2ccccc2o1: 18.4%
COc1cc(/C=C/C(=O)CC(=O)/C=C/c2ccc(O)c(OC)c2)ccc1O.COc1cc(C=CC(=O)CC(=O)C=Cc2ccc(O)c(OC)c2)ccc1O: 66.4%
NC(=O)CSc1ccc2nnc(-c3cccc(F)c3)n2n1: 4.3%

Series 2
Cell line: A-375
Tested at: 100 µM
Time: 36 h
Measurement: viability
CC[C@]1(O)C[C@@H]2CN(CCc3c([nH]c4ccccc34)[C@@](C(=O)OC)(c3cc4c(cc3OC)N(C)[C@H]3[C@@](O)(C(=O)OC)[C@H](OC(C)=O)[C@]5(CC)C=CCN6CC[C@]43[C@@H]65)C2)C1: 11.2%
CCOC(=O)N[C@@H]1CC[C@@H]2[C@@H](C1)C[C@H]1C(=O)O[C@H](C)[C@H]1[C@H]2/C=C/c1ccc(-c2cccc(F)c2)cn1: 102%
c1cnc(N2CCN(Cc3ccc4c(c3)OCO4)CC2)nc1: 83.2%

Series 3
Target: Beta-2 adrenergic receptor (ADRB2, Homo sapiens, UniProt P07550)
Read-out: ligand displacement
Tested at: 10 µM
Measurement: inhibition
CS(=O)(=O)N1CCCC(NC(=O)[C@H](CCC2CCCCC2)NC(=O)c2ccc(CNC(=O)c3cnc4ccccn34)cc2)C1 (stereo partly drawn): 16.3%
Nc1nc(NCc2ccccc2)nc(-c2cccc(CO)c2)n1: 18%
NS(=O)(=O)c1cc(NC(=O)Cc2ccccc2)ccc1Oc1cccc(Cl)c1: 18.9%
Cn1cc(Cl)c2c(Oc3c(F)cc(Nc4cc(Cl)nc(N)n4)cc3F)ccnc21: 10.2%
CN(C)c1ncnc(-c2ccc3nc(Nc4cc(CN5CCN(C(=O)CC(F)(F)F)CC5)ccn4)[nH]c3c2)c1Cl: 12.6%
NC(=O)c1ccc2nc(-c3ccc(C4(N)CCC4)cc3)c(-c3ccccc3)n2n1: 21.5%
O=C(N[C@H]1CCCCC/C=C\C2C[C@@]2(C(=O)O)NC(=O)[C@@H]2C[C@@H](Oc3ccncc3)CN2C1=O)OC1CCCC1 (stereo partly drawn): 12.8%
Nc1cnc(N2CCc3cc(S(=O)(=O)Nc4c(F)cc(Cl)cc4F)cc(N4CCCC4=O)c32)nc1: -3.08%
CC1CCN(c2ccnc(NCc3cn(C)cn3)n2)CC1: -3.61%
O=c1nc(-c2ccccn2)sc2ccccc12: -12.9%
C[C@H](c1ccnc(Nc2nc3ccc(-c4cc(N(C)C)ncn4)cc3[nH]2)c1)N1CCN(C(=O)CC(F)(F)F)CC1: 33.3%
c1ccc(N2CCN(Cc3nc4ccccc4[nH]3)CC2)nc1: -6.61%
CCC(=NO)C(C)=Cc1ccc(F)c(C)c1: -1.29%
c1ccc(C2CCN(c3cnc4c(N5CCOCC5)nccn34)CC2)cc1: 8.86%
C[C@@H](c1cccc(C#N)c1)n1cc(Cl)cc(C(N)=O)c1=N: 13.8%
CCOc1ccc(S(=O)(=O)Nc2ccc(Cl)cc2C#Cc2cnc(C(=O)O)cc2OC)c2ncccc12: 14.8%
Cn1nc(C(=O)NCc2ccc(C(=O)O)cc2)cc1-c1ccc2[nH]ccc2c1: 6.74%
Cc1noc([C@H]2C[C@@H](c3ccc(C(F)(F)F)cc3)CN(C(=O)N3CCS(=O)(=O)C3)C2)n1: 24%
Nc1nc(NCc2ccccc2)nc(-c2ccccc2CO)n1: 20.7%

Series 4
Host: mouse
Sample: microsomes or S9
Tested at: 2 µM
Time: 0.5 h
Measurement: remaining compound
CC(C)(C)C(=O)/C=C1\NCCN\C1=C/C(=O)C(C)(C)C: 9.6%
CC(C)c1c(C(O)c2ccccc2)[nH]c(=O)[nH]c1=O (stereo not drawn): 64.7%
Cn1c(=O)n(Cc2ccc(-c3ccccc3C#N)cc2)c2ccccc21: 0.121%

Series 5
Cell line: mouse MPNST tumor cells
Method: high-content nuclear imaging
Refers to: cell number
Tested at: 10 µM
Time: 12 h
Notes: mean of 2 replicates
Baseline: plate mean
Direction: higher = more cells
Measurement: nuclei count
Cc1noc(NS(=O)(=O)c2cccc3c(N(C)C)cccc23)c1C: 0.00915 z-score
CC(=O)NC1C(OC(C)C)OC(COC(C)=O)C(OC(C)=O)C1OC(C)=O (stereo not drawn): 0.198 z-score
CCc1nn(CCCN2CCN(c3cccc(Cl)c3)CC2)c(=O)n1CCOc1ccccc1: 2.09 z-score

Series 6
Target: Interferon regulatory factor 5, full length, phosphomimetic (IRF5, Homo sapiens, UniProt Q13568-2, residues 1-514, K96S/S451D/S453D/S456D/S462D)
Method: protein-binding microarray
Form: double-stranded DNA, one strand shown
Sample: in vitro
Tested at: 250 nM
Notes: 60-bp whole probe
Added: salmon DNA 0.4 mg/ml
Baseline: random background probes
Direction: higher = stronger binding
Measurement: log fluorescence
Shared flanks, not repeated: GCCTAGCAC … GTCTTGATTCGCTTGACGCTGCTG
TTAGGACTGGGGACTGGGTTGGTGCTA: -0.54 z-score
TTAGGTTTCGACTATCGATTAGTGCTA: 9.18 z-score
TTAGCACTGAGTCTCGATTAGTGCTAG: 0.553 z-score
GACGATATCAGTCTTGAGACGTGCTAG: 0.88 z-score
TCAGTTCTCAGCTTGGGACTGTGCTAG: -0.336 z-score
CTAGATATCGGGACTGGATTAGTGCTA: 0.791 z-score
GACGGACTGCCTATCCTGACGTGCTAG: -0.439 z-score
ATAGGTATCCTTTTCCTTTAGTGCTAG: 0.508 z-score

Series 7
Cell line: Huh-7
Tested at: 10 µM
Time: 24 h
Measurement: viability
CC(C)(C)NCC(O)c1cc(O)cc(O)c1 (stereo not drawn): 101%
O=C1c2ccccc2C(=O)C1c1ccccc1: 102%
CC(=O)OCC(=O)[C@@]1(O)[C@H](C)C[C@H]2[C@@H]3CCC4=CC(=O)C=C[C@]4(C)[C@@]3(F)[C@@H](O)C[C@@]21C: 99.7%
Cc1cc(C)cc(OCC2CNC(=O)O2)c1 (stereo not drawn): 101%

Other studies, line by line
CC(C)n1cnc(-c2ccc(F)cc2)c1-c1ncc(C(=O)Nc2ccc(N3CCN(C)CC3)cc2)[nH]1 — patients with oral herpes (human, idiopathic pulmonary fibrosis; oral, 60 mg once daily, trial, treatment-emergent): 0%
